Published values gathered from unrelated publications.
Lines come from different studies, so protocols differ. ± gives the spread as reported.
AHR: Aryl hydrocarbon receptor (AHR, Homo sapiens, UniProt P35869)
Chain of UniProt P35869 (whole entry, looked up): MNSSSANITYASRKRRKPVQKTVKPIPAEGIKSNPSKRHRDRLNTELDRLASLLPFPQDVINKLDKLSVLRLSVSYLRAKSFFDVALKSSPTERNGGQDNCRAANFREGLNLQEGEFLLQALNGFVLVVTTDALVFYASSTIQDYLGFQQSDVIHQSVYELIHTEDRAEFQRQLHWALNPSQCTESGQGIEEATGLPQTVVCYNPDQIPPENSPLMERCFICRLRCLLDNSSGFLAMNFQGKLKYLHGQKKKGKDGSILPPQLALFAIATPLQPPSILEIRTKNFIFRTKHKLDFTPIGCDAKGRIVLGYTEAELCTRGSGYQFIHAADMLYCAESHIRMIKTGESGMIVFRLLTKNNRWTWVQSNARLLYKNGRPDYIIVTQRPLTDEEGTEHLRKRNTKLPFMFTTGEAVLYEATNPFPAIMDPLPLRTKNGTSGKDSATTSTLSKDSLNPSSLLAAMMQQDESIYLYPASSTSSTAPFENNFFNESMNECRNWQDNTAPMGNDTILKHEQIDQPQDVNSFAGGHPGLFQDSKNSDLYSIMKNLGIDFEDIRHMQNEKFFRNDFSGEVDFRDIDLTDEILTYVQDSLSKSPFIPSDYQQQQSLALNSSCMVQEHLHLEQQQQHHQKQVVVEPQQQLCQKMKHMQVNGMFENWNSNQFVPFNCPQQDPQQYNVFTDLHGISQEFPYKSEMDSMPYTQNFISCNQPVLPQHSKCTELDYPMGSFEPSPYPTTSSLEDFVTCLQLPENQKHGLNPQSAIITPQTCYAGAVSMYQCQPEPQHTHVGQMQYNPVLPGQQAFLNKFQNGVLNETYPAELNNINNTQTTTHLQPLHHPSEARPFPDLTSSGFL
CYP2E1: Cytochrome P450 2E1 (CYP2E1, Homo sapiens, UniProt P05181)
Chain of UniProt P05181 (whole entry, looked up): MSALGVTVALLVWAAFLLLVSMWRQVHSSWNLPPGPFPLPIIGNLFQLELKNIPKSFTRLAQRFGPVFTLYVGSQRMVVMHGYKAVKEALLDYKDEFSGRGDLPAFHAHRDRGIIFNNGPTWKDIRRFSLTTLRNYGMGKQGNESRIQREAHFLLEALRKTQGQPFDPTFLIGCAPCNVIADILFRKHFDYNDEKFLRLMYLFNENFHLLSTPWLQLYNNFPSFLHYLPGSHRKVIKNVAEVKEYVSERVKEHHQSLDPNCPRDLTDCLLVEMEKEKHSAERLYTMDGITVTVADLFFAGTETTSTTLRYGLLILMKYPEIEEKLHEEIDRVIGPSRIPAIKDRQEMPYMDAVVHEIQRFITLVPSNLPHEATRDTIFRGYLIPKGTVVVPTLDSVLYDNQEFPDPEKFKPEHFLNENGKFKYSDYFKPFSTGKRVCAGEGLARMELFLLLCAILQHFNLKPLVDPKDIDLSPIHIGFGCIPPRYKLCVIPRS
SLC22A1: Solute carrier family 22 member 1 (SLC22A1, Homo sapiens, UniProt O15245)
Chain of UniProt O15245 (whole entry, looked up): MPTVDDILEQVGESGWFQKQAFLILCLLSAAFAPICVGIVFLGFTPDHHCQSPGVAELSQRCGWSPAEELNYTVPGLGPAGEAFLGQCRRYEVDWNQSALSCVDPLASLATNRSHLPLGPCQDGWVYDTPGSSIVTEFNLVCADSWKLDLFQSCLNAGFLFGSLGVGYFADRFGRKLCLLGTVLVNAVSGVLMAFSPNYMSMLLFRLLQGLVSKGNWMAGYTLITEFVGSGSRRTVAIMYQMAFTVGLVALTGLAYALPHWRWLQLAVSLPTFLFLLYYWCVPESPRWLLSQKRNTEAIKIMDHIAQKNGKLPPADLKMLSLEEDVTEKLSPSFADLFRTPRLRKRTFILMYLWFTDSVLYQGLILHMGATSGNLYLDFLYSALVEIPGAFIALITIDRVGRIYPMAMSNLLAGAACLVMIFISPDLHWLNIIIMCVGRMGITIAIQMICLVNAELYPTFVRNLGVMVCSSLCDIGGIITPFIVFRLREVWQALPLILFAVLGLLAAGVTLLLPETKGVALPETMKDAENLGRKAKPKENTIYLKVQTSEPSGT
SLCO1B1: Solute carrier organic anion transporter family member 1B1 (SLCO1B1, Homo sapiens, UniProt Q9Y6L6)
Chain of UniProt Q9Y6L6 (whole entry, looked up): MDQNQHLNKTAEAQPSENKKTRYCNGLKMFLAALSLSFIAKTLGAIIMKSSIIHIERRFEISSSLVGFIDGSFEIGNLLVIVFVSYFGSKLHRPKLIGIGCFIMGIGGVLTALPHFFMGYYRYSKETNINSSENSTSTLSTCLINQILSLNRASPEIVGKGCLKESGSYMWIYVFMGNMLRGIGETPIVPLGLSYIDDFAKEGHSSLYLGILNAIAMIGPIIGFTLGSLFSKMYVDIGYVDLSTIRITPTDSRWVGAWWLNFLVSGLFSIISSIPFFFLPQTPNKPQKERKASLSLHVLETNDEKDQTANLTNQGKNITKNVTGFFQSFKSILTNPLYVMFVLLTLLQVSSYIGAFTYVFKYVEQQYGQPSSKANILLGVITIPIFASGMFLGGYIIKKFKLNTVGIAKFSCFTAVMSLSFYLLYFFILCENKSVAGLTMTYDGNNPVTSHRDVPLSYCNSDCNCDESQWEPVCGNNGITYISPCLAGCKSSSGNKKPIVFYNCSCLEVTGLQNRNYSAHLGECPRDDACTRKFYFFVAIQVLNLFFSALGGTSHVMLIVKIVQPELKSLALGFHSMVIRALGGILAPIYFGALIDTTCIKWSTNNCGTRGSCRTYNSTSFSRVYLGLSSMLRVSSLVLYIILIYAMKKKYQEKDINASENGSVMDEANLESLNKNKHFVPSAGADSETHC
Chain of UniProt P08183 (whole entry, looked up): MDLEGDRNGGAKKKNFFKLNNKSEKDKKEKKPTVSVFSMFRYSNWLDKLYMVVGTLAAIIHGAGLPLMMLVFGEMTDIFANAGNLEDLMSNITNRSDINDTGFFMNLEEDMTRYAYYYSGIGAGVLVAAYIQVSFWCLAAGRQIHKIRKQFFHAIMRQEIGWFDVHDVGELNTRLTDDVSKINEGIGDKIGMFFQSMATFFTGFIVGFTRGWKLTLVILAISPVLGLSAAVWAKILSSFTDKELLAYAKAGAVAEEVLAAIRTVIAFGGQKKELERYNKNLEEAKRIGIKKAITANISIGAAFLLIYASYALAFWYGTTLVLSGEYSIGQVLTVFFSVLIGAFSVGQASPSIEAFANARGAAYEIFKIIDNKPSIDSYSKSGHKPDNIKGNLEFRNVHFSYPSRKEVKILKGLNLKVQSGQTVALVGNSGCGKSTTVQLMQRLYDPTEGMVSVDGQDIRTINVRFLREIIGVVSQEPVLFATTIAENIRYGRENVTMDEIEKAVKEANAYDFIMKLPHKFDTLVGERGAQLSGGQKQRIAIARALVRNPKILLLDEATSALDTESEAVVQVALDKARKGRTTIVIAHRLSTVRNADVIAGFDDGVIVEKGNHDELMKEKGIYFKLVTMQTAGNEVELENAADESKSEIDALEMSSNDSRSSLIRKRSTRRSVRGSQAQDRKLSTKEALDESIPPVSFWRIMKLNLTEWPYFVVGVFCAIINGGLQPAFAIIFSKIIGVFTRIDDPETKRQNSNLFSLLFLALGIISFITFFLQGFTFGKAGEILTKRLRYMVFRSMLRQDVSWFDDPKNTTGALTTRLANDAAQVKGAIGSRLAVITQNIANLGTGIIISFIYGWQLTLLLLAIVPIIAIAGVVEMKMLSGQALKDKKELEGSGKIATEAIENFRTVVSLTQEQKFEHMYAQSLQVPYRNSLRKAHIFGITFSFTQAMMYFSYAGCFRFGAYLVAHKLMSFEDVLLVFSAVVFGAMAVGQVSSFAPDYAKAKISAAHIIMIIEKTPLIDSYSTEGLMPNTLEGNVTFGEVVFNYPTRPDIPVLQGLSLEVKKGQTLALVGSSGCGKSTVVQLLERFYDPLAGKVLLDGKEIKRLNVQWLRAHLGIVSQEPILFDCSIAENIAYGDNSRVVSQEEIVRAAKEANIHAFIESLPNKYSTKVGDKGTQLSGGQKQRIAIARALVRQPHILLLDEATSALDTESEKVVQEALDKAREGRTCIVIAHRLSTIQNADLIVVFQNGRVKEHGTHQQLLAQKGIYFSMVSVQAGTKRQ
Chain of UniProt P22309 (whole entry, looked up): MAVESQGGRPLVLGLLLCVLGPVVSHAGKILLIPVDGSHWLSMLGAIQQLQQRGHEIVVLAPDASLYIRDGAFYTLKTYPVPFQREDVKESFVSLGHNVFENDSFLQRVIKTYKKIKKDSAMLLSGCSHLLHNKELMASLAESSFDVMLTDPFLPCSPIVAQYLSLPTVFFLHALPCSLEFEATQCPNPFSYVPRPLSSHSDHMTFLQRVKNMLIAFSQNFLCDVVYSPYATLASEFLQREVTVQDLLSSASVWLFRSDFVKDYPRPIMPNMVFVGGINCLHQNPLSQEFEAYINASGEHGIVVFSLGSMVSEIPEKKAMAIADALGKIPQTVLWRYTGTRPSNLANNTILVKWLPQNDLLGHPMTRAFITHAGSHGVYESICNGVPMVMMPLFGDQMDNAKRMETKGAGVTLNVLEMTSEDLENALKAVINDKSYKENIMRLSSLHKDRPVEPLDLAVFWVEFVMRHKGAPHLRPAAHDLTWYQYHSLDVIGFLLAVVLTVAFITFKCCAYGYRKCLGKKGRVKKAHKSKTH
Chain of UniProt P02769 (whole entry, looked up): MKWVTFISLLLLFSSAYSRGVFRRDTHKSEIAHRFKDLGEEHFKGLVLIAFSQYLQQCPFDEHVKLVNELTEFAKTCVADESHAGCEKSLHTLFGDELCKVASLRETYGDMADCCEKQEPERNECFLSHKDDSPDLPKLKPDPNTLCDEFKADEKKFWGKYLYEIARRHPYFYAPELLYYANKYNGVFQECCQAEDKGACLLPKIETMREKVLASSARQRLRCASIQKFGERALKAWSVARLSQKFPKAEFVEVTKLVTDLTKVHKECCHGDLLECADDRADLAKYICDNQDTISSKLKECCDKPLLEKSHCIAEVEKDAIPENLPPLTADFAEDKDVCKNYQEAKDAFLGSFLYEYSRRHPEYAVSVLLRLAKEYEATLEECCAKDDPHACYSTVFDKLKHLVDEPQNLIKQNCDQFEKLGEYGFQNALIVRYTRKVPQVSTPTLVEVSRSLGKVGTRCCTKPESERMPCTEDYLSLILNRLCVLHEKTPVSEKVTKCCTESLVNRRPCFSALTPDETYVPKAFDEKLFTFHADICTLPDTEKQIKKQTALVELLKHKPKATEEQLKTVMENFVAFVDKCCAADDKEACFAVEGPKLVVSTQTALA

CC(C)=CC1C(C(=O)OC(C#N)c2cccc(Oc3ccccc3)c2)C1(C)C (centres unmarked) — relative enzyme contribution (human microsomal CES1; IVIVE from expressed enzymes; human, 5 years old; baseline: total hepatic CLint in vivo): 50.7%
Oc1ccc(-c2cccc(Cl)c2)cc1Cl — maximum activity (AHR; reporter gene, antagonist; AZ-AHR cells; 25 µM, added: TCDD 4.5 nM; baseline: TCDD 4.5 nM): 25%
C[C@@H](O)[C@H](N)C(=O)N1CCC[C@H]1C(=O)N1CCC[C@H]1C(=O)N[C@H](C(N)=O)[C@@H](C)O — inhibition (UGT1A1 (Homo sapiens, UniProt P22309); enzyme activity; 30 µM): -5%
C=CC1CO1 (centres unmarked) — IC50 (CYP2E1; enzyme activity, inhibitor; added: 4-nitrophenol 50 µM): 260 µM
Cc1oncc1C(=O)Nc1ccc(C(F)(F)F)cc1 — inhibition (SLC22A1; transport, inhibitor; transiently transfected cells; 100 µM, 10 (unit not given), added: metformin): 21.8%
Cc1ccccc1 — remaining activity (CYP2E1; enzyme activity, inhibitor; concentration not given, 30 min, pH 7.4): 14%
COc1ccc2cc1Oc1ccc(cc1)C[C@H]1c3cc(c(OC)cc3CCN1C)Oc1c(OC)c(OC)cc3c1[C@H](C2)N(C)CC3 — inhibition (SLCO1B1; transport, inhibitor; 10 µM, added: ES): 36.9%
Oc1ccc(-c2cc(Cl)ccc2Cl)c(Cl)c1 — maximum activity (AHR; reporter gene, antagonist; AZ-AHR cells; 25 µM, added: TCDD 4.5 nM; baseline: TCDD 4.5 nM): 134%
CCS(=O)(=O)N1CC(CC#N)(n2cc(-c3ncnc4[nH]ccc34)cn2)C1 — inhibition (SLC22A1; transport, inhibitor; 50 µM, 10 (unit not given), added: metformin): 67.2%
CC(C)CC(=O)OC[C@H]1O[C@@](C#N)(c2ccc3c(N)ncnn23)[C@H](O)[C@@H]1O — Papp B to A (ABCB1 (Homo sapiens, UniProt P08183); Caco-2; 0.9 µM, 2 h): 1.25 ×10⁻⁶ cm/s
CC1(C)[C@H](C(=O)O[C@H](C#N)c2cccc(Oc3ccccc3)c2)[C@@H]1C=C(Br)Br — enzyme contribution to CLint (human cytosolic CES2; IVIVE from expressed enzymes; human, liver, in vivo scaled; 0.1 µM, age-specific): 0.36%
O=C(O)C(F)(F)C(F)(F)C(F)(F)C(F)(F)C(F)(F)C(F)(F)C(F)(F)F — CLint (SLCO1B1; uptake, substrate; CHO cells stably expressing SLCO1B1, HBSS with HEPES; pH 7.4): 43.8 ± 15.3 µL/min/mg
Clc1ccc(-c2ccccc2Cl)cc1 — maximum activity (AHR; reporter gene, antagonist; AZ-AHR cells; 40 µM, added: TCDD 4.5 nM; baseline: TCDD 4.5 nM): 58%
CCCCCCCCc1ccc(CCC(N)(CO)CO)cc1 — inhibition (SLC22A1; transport, inhibitor; transiently transfected cells; 100 µM, 10 (unit not given), added: metformin): 20%
CCCCO — IC50 (CYP2E1; enzyme activity, inhibitor): 110 µM
CC1(C)C(C=C(Cl)Cl)C1C(=O)OC(C#N)c1ccc(F)c(Oc2ccccc2)c1 (centres unmarked) — relative enzyme contribution (human microsomal CES1; IVIVE from expressed enzymes; human, 5 years old, expressed human CES1; 0.1 µM; baseline: total hepatic CLint in vivo): 57.5%
CC[C@H](C)[C@H](NC(=O)[C@H](CCCCN)NC(=O)[C@H](CCC(=O)O)NC(=O)[C@H](CCCCN)NC(=O)[C@H](CO)NC(=O)[C@H](CCCCN)NC(=O)[C@H](CCCNC(=N)N)NC(=O)[C@H](Cc1ccccc1)NC(=O)[C@H](Cc1ccccc1)NC(=O)[C@H](CC(=O)O)NC(=O)CNC(=O)[C@H](CC(C)C)NC(=O)[C@@H](N)CC(C)C)C(=O)NCC(=O)N[C@@H](CCCCN)C(=O)N[C@@H](CCC(=O)O)C(=O)N[C@@H](Cc1ccccc1)C(=O)N[C@@H](CCCCN)C(=O)N[C@@H](CCCNC(=N)N)C(=O)N[C@H](C(=O)N[C@H](C(=O)N[C@@H](CCC(N)=O)C(=O)N[C@@H](CCCNC(=N)N)C(=O)N[C@H](C(=O)N[C@@H](CCCCN)C(=O)N[C@@H](CC(=O)O)C(=O)N[C@@H](Cc1ccccc1)C(=O)N[C@@H](CC(C)C)C(=O)N[C@@H](CCCNC(=N)N)C(=O)N[C@@H](CC(N)=O)C(=O)N[C@@H](CC(C)C)C(=O)N[C@H](C(=O)N1CCC[C@H]1C(=O)N[C@@H](CCCNC(=N)N)C(=O)N[C@H](C(=O)N[C@@H](CCC(=O)O)C(=O)N[C@@H](CO)C(=O)O)[C@@H](C)O)C(C)C)[C@@H](C)CC)C(C)C)[C@@H](C)CC — remaining intact peptide (human neutrophil elastase; LC-MS; 40 µM, 120 min, pH 7.5, 37 °C; baseline: 0 h): 1.42%
CC1(C)C(/C=C(\Cl)C(F)(F)F)C1C(=O)OC(C#N)c1cccc(Oc2ccccc2)c1 (centres unmarked) — enzyme contribution to CLint (human microsomal CES1; IVIVE from expressed enzymes; human, liver, in vivo scaled; age-specific): 58.5%
CC[C@H](C)[C@H](NC(=O)[C@H](CCCCN)NC(=O)[C@@H](NC(=O)[C@H](Cc1ccc(O)cc1)NC(=O)[C@H](CCCCN)NC(=O)[C@H](CCCCN)NC(=O)CNC(=O)[C@H](CCCCN)NC(=O)[C@@H](NC(=O)[C@H](C)NC(=O)[C@H](CC(C)C)NC(=O)[C@H](Cc1c[nH]c2ccccc12)NC(=O)CNC(=O)[C@@H](NC(=O)[C@H](Cc1ccccc1)NC(=O)[C@H](CCCCN)NC(=O)[C@H](CC(C)C)NC(=O)[C@H](Cc1ccccc1)NC(=O)[C@H](C)NC(=O)CNC(=O)[C@@H](N)CCSC)C(C)C)[C@@H](C)O)C(C)C)C(=O)N[C@@H](C)C(=O)N[C@@H](Cc1c[nH]c2ccccc12)C(=O)N[C@@H](CC(=O)O)C(=O)N[C@@H](Cc1c[nH]cn1)C(=O)N[C@@H](CCCCN)C(=O)NCC(=O)N[C@H](C(=O)N[C@H](C(=O)N[C@@H](CCSC)C(=O)N[C@@H](CCCCN)C(=O)N[C@@H](Cc1c[nH]c2ccccc12)C(=O)N[C@@H](CC(C)C)C(=O)N[C@@H](CC(N)=O)C(=O)N[C@@H](C)C(=O)NCC(=O)N[C@@H](CCC(N)=O)C(=O)N[C@H](C(=O)N[C@@H](Cc1ccccc1)C(=O)N[C@H](C(=O)N[C@@H](Cc1c[nH]c2ccccc12)C(=O)N[C@H](C(=O)N[C@@H](Cc1ccc(O)cc1)C(=O)N[C@@H](CCC(=O)O)C(=O)N[C@@H](CCC(N)=O)C(=O)N[C@H](C(=O)N[C@@H](CCCCN)C(=O)N[C@@H](CCCCN)C(=O)N[C@@H](CC(C)C)C(=O)N[C@@H](Cc1c[nH]c2ccccc12)C(=O)N[C@H](C(=O)O)[C@@H](C)O)[C@@H](C)CC)C(C)C)[C@@H](C)O)[C@@H](C)O)[C@@H](C)CC)[C@@H](C)O — residual antimicrobial activity (lysozyme; Pediococcus damnosus, CECT 4797; concentration not given, 3 h, 37 °C, added: lysozyme 1 mg/mL): no effect
CC(C)[C@H](C(=O)O[C@H](C#N)c1cccc(Oc2ccccc2)c1)c1ccc(Cl)cc1 — relative enzyme contribution (human microsomal CES1; IVIVE from expressed enzymes; human, 6 months old; baseline: total hepatic CLint in vivo): 47.8%
COc1cc(-c2[o+]c3cc(O)cc(O)c3cc2O[C@@H]2O[C@H](CO)[C@@H](O)[C@H](O)[C@H]2O)cc(OC)c1O — Kd (Albumin (ALB, Bos taurus, UniProt P02769); fluorescence quenching; pH 7, 20 °C, added: 1 µM BSA): 99.1 ± 9.38 µM
CC1(C)[C@H](C(=O)OCc2cccc(Oc3ccccc3)c2)[C@@H]1C=C(Cl)Cl — enzyme contribution to CLint (human CYP3A5; IVIVE from expressed enzymes; human, liver, in vivo scaled; 0.1 µM, age-specific): 0.13%
NC(=O)c1nc(F)c[nH]c1=O — inhibition (SLC22A1; transport, inhibitor; transiently transfected cells; 100 µM, 10 (unit not given), added: metformin): -2%

A few entries again:
CC1(C)C(/C=C(\Cl)C(F)(F)F)C1C(=O)OC(C#N)c1cccc(Oc2ccccc2)c1 (centres unmarked) — enzyme contribution to CLint (human microsomal CES1; IVIVE from expressed enzymes; human, liver, in vivo scaled; age-specific): 58.5%
CC[C@H](C)[C@H](NC(=O)[C@H](CCCCN)NC(=O)[C@@H](NC(=O)[C@H](Cc1ccc(O)cc1)NC(=O)[C@H](CCCCN)NC(=O)[C@H](CCCCN)NC(=O)CNC(=O)[C@H](CCCCN)NC(=O)[C@@H](NC(=O)[C@H](C)NC(=O)[C@H](CC(C)C)NC(=O)[C@H](Cc1c[nH]c2ccccc12)NC(=O)CNC(=O)[C@@H](NC(=O)[C@H](Cc1ccccc1)NC(=O)[C@H](CCCCN)NC(=O)[C@H](CC(C)C)NC(=O)[C@H](Cc1ccccc1)NC(=O)[C@H](C)NC(=O)CNC(=O)[C@@H](N)CCSC)C(C)C)[C@@H](C)O)C(C)C)C(=O)N[C@@H](C)C(=O)N[C@@H](Cc1c[nH]c2ccccc12)C(=O)N[C@@H](CC(=O)O)C(=O)N[C@@H](Cc1c[nH]cn1)C(=O)N[C@@H](CCCCN)C(=O)NCC(=O)N[C@H](C(=O)N[C@H](C(=O)N[C@@H](CCSC)C(=O)N[C@@H](CCCCN)C(=O)N[C@@H](Cc1c[nH]c2ccccc12)C(=O)N[C@@H](CC(C)C)C(=O)N[C@@H](CC(N)=O)C(=O)N[C@@H](C)C(=O)NCC(=O)N[C@@H](CCC(N)=O)C(=O)N[C@H](C(=O)N[C@@H](Cc1ccccc1)C(=O)N[C@H](C(=O)N[C@@H](Cc1c[nH]c2ccccc12)C(=O)N[C@H](C(=O)N[C@@H](Cc1ccc(O)cc1)C(=O)N[C@@H](CCC(=O)O)C(=O)N[C@@H](CCC(N)=O)C(=O)N[C@H](C(=O)N[C@@H](CCCCN)C(=O)N[C@@H](CCCCN)C(=O)N[C@@H](CC(C)C)C(=O)N[C@@H](Cc1c[nH]c2ccccc12)C(=O)N[C@H](C(=O)O)[C@@H](C)O)[C@@H](C)CC)C(C)C)[C@@H](C)O)[C@@H](C)O)[C@@H](C)CC)[C@@H](C)O — residual antimicrobial activity (lysozyme; Pediococcus damnosus, CECT 4797; concentration not given, 3 h, 37 °C, added: lysozyme 1 mg/mL): no effect
CC(C)[C@H](C(=O)O[C@H](C#N)c1cccc(Oc2ccccc2)c1)c1ccc(Cl)cc1 — relative enzyme contribution (human microsomal CES1; IVIVE from expressed enzymes; human, 6 months old; baseline: total hepatic CLint in vivo): 47.8%
